Assay results pooled from the literature.
Each line is one published result; not all experiments were run side by side. Numbers after ± are the reported error.

SMILES | test | system | conditions | AUC(0-inf)
CNC(=O)c1ccc(-c2cnc3ncc(Cc4ccc5ncccc5c4)n3n2)cc1F | – | moderate hepatic impairment | oral, 200 mg, mean | 5960 ng·h/mL
CCN(CC)Cc1cc(Nc2ccnc3cc(Cl)ccc23)ccc1O | – | rat, Wistar, male, plasma | oral, 60 mg/kg | 4010 ± 428 ng·h/mL
C[C@@H]1O[C@@H](OC[C@H]2O[C@@H](Oc3c(-c4ccc(O)c(O)c4)oc4cc(O)cc(O)c4c3=O)[C@H](O)[C@@H](O)[C@@H]2O)[C@H](O)[C@H](O)[C@H]1O | UPLC-MS/MS | Wistar rat, microcirculation dysfunction model, plasma | oral, 100 mg/kg Salvia miltiorrhiza stem-leaf extract FT | 174 ± 136 ng·h/mL
CC(C)=CCC[C@](C)(O[C@@H]1O[C@H](CO)[C@@H](O)[C@H](O)[C@H]1O)[C@H]1CC[C@]2(C)[C@@H]1[C@H](O)C[C@@H]1[C@@]3(C)CC[C@H](O)C(C)(C)[C@@H]3[C@@H](O[C@@H]3O[C@H](CO)[C@@H](O)[C@H](O)[C@H]3O)C[C@]12C | – | Sprague Dawley rat, male, plasma | oral, 25 mg/kg, in white ginseng extract | 1800 ± 800 ng·h/mL
C=CC(N)CCC(=O)O (centres unmarked) | – | male Sprague-Dawley rat, plasma | oral, 10 mg/kg, formulation 10, with: Sar 200 mg/kg | 15900 ± 816 ng·h/mL
O=C(/C=C/c1ccc(O)c(O)c1/C=C/c1ccc(O)c(O)c1)O[C@H](Cc1ccc(O)c(O)c1)C(=O)O | UPLC-MS/MS | Wistar rat, microcirculation dysfunction model, plasma | oral, 100 mg/kg Salvia miltiorrhiza stem-leaf extract FT | 202 ± 149 ng·h/mL
CC(C)=CCC[C@](C)(O[C@@H]1O[C@H](CO[C@@H]2O[C@H](CO)[C@@H](O)[C@H](O)[C@H]2O)[C@@H](O)[C@H](O)[C@H]1O)[C@H]1CC[C@]2(C)[C@@H]1[C@H](O)C[C@@H]1[C@@]3(C)CC[C@H](O[C@@H]4O[C@H](CO)[C@@H](O)[C@H](O)[C@H]4O[C@@H]4O[C@H](CO)[C@@H](O)[C@H](O)[C@H]4O)C(C)(C)[C@@H]3CC[C@]12C | – | Sprague Dawley rat, male, plasma | oral, 86 mg/kg, pure ginsenoside mixture in water | 68500 ± 17300 ng·h/mL
CCCC[C@H](NC(C)=O)C(=O)N[C@H]1CCC(=O)NC[C@@H](C(=O)N[C@@H](Cc2c[nH]c3ccccc23)C(N)=O)NC(=O)[C@H](CCCNC(=N)N)NC(=O)[C@@H](Cc2ccccc2)NC(=O)[C@H](Cc2c[nH]cn2)NC1=O | – | CD Sprague Dawley rat, female, plasma | subcutaneous, 5.0 mg/kg daily, day 1 | 4200 ng·h/mL
CCC[C@@]1(CCc2ccccc2)CC(O)=C([C@H](CC)c2cccc(NS(=O)(=O)c3ccc(C(F)(F)F)cn3)c2)C(=O)O1 | – | Sprague Dawley rat, male, plasma | oral, 5 mg/kg, lipid-free formulation | 8730 ± 771 ng·h/mL
CC(C)=CCC[C@](C)(O[C@@H]1O[C@H](CO)[C@@H](O)[C@H](O)[C@H]1O)[C@H]1CC[C@]2(C)[C@@H]1[C@H](O)C[C@@H]1[C@@]3(C)CC[C@H](O)C(C)(C)[C@@H]3[C@@H](O[C@@H]3O[C@H](CO)[C@@H](O)[C@H](O)[C@H]3O[C@@H]3O[C@@H](C)[C@H](O)[C@@H](O)[C@H]3O)C[C@]12C | – | Sprague Dawley rat, male, plasma | oral, 45 mg/kg, in white ginseng extract | 2900 ± 500 ng·h/mL
CCOc1cc([C@@H](CS(C)(=O)=O)N2C(=O)c3cccc(NC(C)=O)c3C2=O)ccc1O[C@@H]1O[C@H](C(=O)O)[C@@H](O)[C@H](O)[C@H]1O | – | moderate renal impairment, plasma | oral, 30 mg apremilast single, geometric mean | 7900 ng·h/mL
